# Experimental data gathered from unrelated publications.
# Numbered parts are unrelated; each lists some results of a single study. Positions count from the first letter of the parent shown.

# Block 1 — method: RNA Bind-n-Seq; form: RNA; matrix: in vitro; tested at: 365 nM; relative to: no-protein control; direction: higher = stronger binding
# Target: RNA binding protein fox-1 homolog 2, RRM domain, GST-SBP tag (RBFOX2, Homo sapiens, UniProt O43251-10, residues 100-194)
# Setting: natural RNA segment, single round, ends assumed
# All sequences stand within: GGGAGUUCUACAGUCCGACGAUC … UGGAAUUCUCGGGUGCCAA
# Residues (chain): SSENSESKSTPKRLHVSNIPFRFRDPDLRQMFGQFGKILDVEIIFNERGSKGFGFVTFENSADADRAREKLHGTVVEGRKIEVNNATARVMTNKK
Sequence,RBNS enrichment (R)
AGUGCACUGGCCCUCUUUGAAAGGGCUUUACAGUGGGGGCACCAAGACCCCAAAGGGCCCAGGCCAGGAGACUGUUAAAGUGAAAAGGCAAUCUAUGACUCACCUUGCUC,0.322
UAUAAUUUUCAUAUAGCCGUAUAAGGAUUGAUUUACCAUUUUUUGCCCAACAUGACAAUUCUGGCUAUGAAAAUUAUGUUUAAACUGUGUAUGAUCUAUUUUAUGUGCUC,0.605
AUAUCAUUGAUGUAAAACCCUUGGACUUAGGGGGCAUGAGGAUUUAAUAUGCCUGCGGGGUAACGAUGUUACCACAGCAAUGGCAGCUUCAACUUACUUGUUCUAAGCAC,0.277
GAUGAUUGUCUGCAGGGCAUCUGUGUAUAUCACAGUGGCCAGGCCCCCUGCAAGAAACAAGGCUGCUGGAGUAAGUGUCCCAGGAGAGUCUGACCUCAUCACCAGAGCUG,0.475
CUAAAUGUUUUCAAAAUGUAAGUUCCUGUGGAGAAGAAUUGUUUAUAUUGCAAACGGGGGGACUGAGGGGAACCUGUAGGUUUAAAACAGUAUGUUUGUCAGCCAACUGA,0.81
CGUAAAAGCCAUGAAUGCUGGAAUCCAAAACUGACGAGGUUUAUUUUUUUCAGAGCCAGUGGCUGGUCUUCCAUUUACAGUGUCACUAUUCCCUGACGGAGCUGUUAUGU,0.239
UCCUCCGUUGUUCCCAGGACUCAAGAGGAAUUUGUUUCUCUGCUGUCAGCUUCCUGUCUGGCUCAGUAUAGCCUCACUCUGCCGUUAUGCAAAUGGAGAUCAAAGUAAUU,0.278
AGAAGGCAGGAAGUCCUACACCAUAGUUAGAUGAACCUAACUGUACCUGGAAGUUGCCCAUUUAACUAAUUAUUCUGUCCUGUGACUGUCAUCCUUCCAGUUGUUGUGUA,0.501
AAGGAUGACUUUUUUUCUGAUUCAAAAGUGAACUUGAUUUUAAAAACCAGUCAAGAGCAAUCAAAGCAGCACAUGGUGUUGUAUACUUCAUUAGCAAGUGAGUUUGGUGU,0.401
AAGAACACCUAAAUUUUUAUGUUUCUUGGCUCAAAAACCAGUUCCAUUUCUAAUGUUGUCCUCACAAGAAGGCUAAUUGGUGGUGAGACAGCAGGGGAGGAGGAAGAGCU,0.581
UGCGUGAGUGGUGUGCAGGCGCGGUUCCUUACGCCCCAUGUGUGCUGUGUGUGUCCAGGCACGGUUCCUUACGCCCCAUGUGUGCUGUGUGUGUCCUGCCUGUAUAUGUG,0.941
UUUUACUGAGAAAGGAAGGGCCAAGGGAUGAGGUGGGAACCGGGCCCUGGGGGCGCCACAGACUAAGGCAGAGACUCCCCUACCUGGCGCCCAGCCCCAACCAGCUGGCC,0.465

# Block 2 — method: universal PBM; form: double-stranded DNA, one strand shown; matrix: in vitro; tested at: 600 nM; direction: higher = stronger binding
# Target: Sal-like protein 4, full length isoform A (SALL4, Homo sapiens, UniProt Q9UJQ4, residues 1-1053)
# Chain of UniProt Q9UJQ4 (whole entry, looked up): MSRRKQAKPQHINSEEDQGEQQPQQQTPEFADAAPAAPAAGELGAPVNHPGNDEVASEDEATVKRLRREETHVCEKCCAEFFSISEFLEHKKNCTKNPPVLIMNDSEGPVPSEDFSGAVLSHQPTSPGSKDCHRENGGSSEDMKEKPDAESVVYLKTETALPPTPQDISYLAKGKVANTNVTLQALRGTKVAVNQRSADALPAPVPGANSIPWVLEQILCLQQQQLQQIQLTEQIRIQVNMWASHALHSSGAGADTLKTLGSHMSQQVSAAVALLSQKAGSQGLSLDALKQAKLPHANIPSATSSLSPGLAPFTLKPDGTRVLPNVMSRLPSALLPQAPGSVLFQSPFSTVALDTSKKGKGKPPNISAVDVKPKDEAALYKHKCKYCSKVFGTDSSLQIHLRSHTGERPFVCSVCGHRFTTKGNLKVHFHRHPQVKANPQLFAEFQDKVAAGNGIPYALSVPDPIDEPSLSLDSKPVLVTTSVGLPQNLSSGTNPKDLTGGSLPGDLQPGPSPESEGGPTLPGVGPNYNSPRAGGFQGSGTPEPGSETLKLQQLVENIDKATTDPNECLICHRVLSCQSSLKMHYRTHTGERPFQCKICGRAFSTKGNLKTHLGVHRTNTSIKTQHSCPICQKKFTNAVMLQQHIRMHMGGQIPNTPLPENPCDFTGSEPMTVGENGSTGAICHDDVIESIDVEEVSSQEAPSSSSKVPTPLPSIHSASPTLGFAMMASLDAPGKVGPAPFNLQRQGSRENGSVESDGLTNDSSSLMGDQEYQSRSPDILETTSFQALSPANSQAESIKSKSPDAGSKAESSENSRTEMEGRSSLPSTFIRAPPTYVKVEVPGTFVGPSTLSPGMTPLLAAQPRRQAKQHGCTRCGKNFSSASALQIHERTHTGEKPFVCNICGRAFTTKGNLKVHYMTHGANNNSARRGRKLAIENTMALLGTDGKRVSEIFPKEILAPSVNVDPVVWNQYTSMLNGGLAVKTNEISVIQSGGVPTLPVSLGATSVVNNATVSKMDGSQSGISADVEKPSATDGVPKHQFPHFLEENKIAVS
# Setting: 8-mer, flanks averaged, mean of replicates
Sequence,E-score
GCCCAGAC,-0.404
CCAACCAC,0.00124
GTTAAAAA,0.241
ATGATAGG,0.0115
CCCTCAGC,-0.26
CCCAGGAA,-0.0728
AGGTATGA,0.142
AGCTGTAT,0.129
CACCTGCG,-0.291
CGGAAGCC,-0.28
CACCTACA,-0.0274
GACGGAAC,-0.156
AAATTAAG,0.217
AGAGGAGC,-0.217
AATAGTTG,0.307
AAGTATAC,0.312
GAGGTGGA,-0.174
AGGACCCT,-0.233
AATTCGGT,0.0849
GTATGCCA,-0.155

# Block 3 — target: DBP, bZIP domain (human); method: DHFR protein complementation; matrix: yeast; relative to: wild-type JUN-FOS pair; direction: higher = stronger binding
# Setting: single substitutions, most at no-binding floor
# Starting sequence: JUN, bZIP domain (human); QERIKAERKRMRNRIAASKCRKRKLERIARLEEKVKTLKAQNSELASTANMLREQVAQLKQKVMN; partner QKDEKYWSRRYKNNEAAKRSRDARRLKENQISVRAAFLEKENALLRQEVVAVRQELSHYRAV
Substitution,binding fitness [natural log]
S47D,-1.36
L31I,-1.14
E44M,-1.46
K36T,-1.52
Q55Y,-1.57
A57H,-1.52
R30G,-1.45
M51E,-1.39
E44Q,-1.44
V35Y,-1.4
I28D,-1.1
T48L,-1.51
T37S,-1.47
A49S,-1.4
A46T,-1.58

# Block 4 — method: protein-binding microarray; form: double-stranded DNA, one strand shown; matrix: in vitro; tested at: 250 nM; setting: 60-bp whole probe; added: salmon DNA 0.4 mg/ml; relative to: random background probes; direction: higher = stronger binding; all sequences stand within: GCCTAGCAC … GTCTTGATTCGCTTGACGCTGCTG
# Target: Interferon regulatory factor 7, full length, phosphomimetic (IRF7, Homo sapiens, UniProt Q92985, residues 1-503, S101K/S471D/S472D/S475D/S476D/S477D/S483D/S484D/S487D)
# Construct (chain): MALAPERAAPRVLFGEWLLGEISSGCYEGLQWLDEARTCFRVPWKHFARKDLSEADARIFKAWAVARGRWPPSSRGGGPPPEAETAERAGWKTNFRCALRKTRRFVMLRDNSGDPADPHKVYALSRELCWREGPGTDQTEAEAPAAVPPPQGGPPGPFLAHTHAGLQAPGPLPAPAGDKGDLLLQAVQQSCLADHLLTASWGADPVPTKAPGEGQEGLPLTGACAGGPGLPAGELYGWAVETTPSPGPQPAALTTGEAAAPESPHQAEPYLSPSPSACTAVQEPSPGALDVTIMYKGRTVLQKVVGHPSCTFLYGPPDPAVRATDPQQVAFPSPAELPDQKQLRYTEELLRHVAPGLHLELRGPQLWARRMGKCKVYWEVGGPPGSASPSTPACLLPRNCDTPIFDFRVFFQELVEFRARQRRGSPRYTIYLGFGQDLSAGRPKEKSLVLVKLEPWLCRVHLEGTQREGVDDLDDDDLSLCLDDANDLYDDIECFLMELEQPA
Sequence,log fluorescence [z-score]
TTAGGTACCGGTTTCGGTTAGTGCTAG,10.2
CATCATTGCCTGTTTTTCCCCGTGCTA,0.129
CACGGTATCGGACTGGGGACGTGCTAG,0.214
GACGGAGTGGGTTTCGGGACGTGCTAG,1.59
TTAGGTTTCGACTTTCGGTTAGTGCTA,11.6
TTAGGACTGGACTTTAGGTTAGTGCTA,-0.581
TTAGGACTGGACTTTCGTTTAGTGCTA,0.995
TTAGGTATCGACTTTCGCTTAGTGCTA,2.07
GACGGTTTCGGACTGGGGAGGTGCTAG,3.74
GAACCTTGGCCTCTAGGTTTGTGCTAG,0.142
TCATATATGACAATGATACTGTGCTAG,0.573
TTAAGTCTCGGTCTCGGTTAGTGCTAG,2.94
TTAGATTTCGGGTTTCCATTAGTGCTA,3.63
TTAGATCTCAGACTTGATTAGTGCTAG,0.109
GTCGAACTGAGTATCGAGACGTGCTAG,0.395
TCACCTTGATGTCTGGGACTGTGCTAG,-0.544
GACGGACTGCCTCTCCTGACGTGCTAG,-0.366
TTAGAGATCGGGACTGGATTAGTGCTA,-0.0865
TTAGGTTTCGACACTGGGTAAGTGCTA,3.88
GACGGTTTCCTCTTCCTGACGTGCTAG,2.69
TTAGAACTGGGGTTTCGTTTAGTGCTA,6.01
TTAGCTATCAGTCTCGATTAGTGCTAG,1.15
TCATGACACCGATTTCATACTGTGCTA,0.258
TTAGGTTTGGGGACTGGGTTAGTGCTA,0.00321
TTAGGACTGGGACTGCGTTAGTGCTAG,-0.724

# Block 5 — method: RNA Bind-n-Seq; form: RNA; matrix: in vitro; tested at: 200 nM; setting: whole 134-nt RNA, ends assumed; added: 150 mM LiCl; relative to: input library; direction: higher = stronger binding; library: 7-deaza-guanosine replaces G
# Target: Ras GTPase-activating protein-binding protein 1, full length (G3BP1, Homo sapiens, UniProt Q13283)
# Chain of UniProt Q13283 (whole entry, looked up): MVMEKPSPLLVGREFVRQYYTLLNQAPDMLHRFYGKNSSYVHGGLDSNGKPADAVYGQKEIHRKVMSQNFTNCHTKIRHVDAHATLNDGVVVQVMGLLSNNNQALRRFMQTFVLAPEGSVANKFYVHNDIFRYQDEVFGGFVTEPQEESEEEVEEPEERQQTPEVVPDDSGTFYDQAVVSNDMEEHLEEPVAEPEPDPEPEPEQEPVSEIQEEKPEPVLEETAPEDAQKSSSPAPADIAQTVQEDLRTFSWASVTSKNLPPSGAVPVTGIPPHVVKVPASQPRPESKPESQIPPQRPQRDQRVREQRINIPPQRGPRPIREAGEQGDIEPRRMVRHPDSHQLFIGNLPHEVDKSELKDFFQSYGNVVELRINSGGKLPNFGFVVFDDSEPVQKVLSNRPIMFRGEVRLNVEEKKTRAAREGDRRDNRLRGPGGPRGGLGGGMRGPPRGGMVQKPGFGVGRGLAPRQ
# All sequences stand within: GGGAGUUCUACAGUCCGACGAUC … UGGAAUUCUCGGGUGUCAAGG
Sequence,log2 enrichment
CCUCAAGUCCUGUGCUACACAUCGUAUGUACCGAAUCGGAAGGGAAGGGAAGGAAAGUAUUAUGUUACGCCGUUCGGAUCUGCACUUCCA,-0.81
UGUGCUACACAUCGUAUGUACCGAAUCGGGGUUUUUUUGGGGAAAAAAAGGGGAAAAAGGGGAAAGUAUUAUGUUACGCCGUUCGGAUCU,-0.944
UGGCCCUGGUGGCAUGCGGGGAGGAGGAGGUGGCCUCAUGGAUCGUGGUGGUCCCGGUGGAAUGUUCAGAGGUGGCCGUGGUGGAGACAG,0.465
CACAGACACCACGCACCCACACAGACACAGAGGGAAGGGGUUGGGAUGGGGACAGGGUGCACAGCAGGGCGGGGUAGGACCCCAGCCCCU,0.128
GCAGGAAGUAAAAACAAAUGGAAAUGCUUCGGAUAGUGGCAGGGGUGGGGGUUGCUAAGGAAAGGGAGGGAUGGGAGUGGGUAAAGAGUU,-0.077
AAGUCCUGUGCUACACAUCGUAUGUACCGAAUCGGGUUUUGGGUUUUGGGGUUUUGGAAAGUAUUAUGUUACGCCGUUCGGAUCUGCACU,0.194
UCAAGUCCUGUGCUACACAUCGUAUGUACCGAAUCGGGAAAAAGGGUGGGUGGGAAAGUAUUAUGUUACGCCGUUCGGAUCUGCACUUCC,-0.703
UCAAGUCCUGUGCUACACAUCGUAUGUACCGAAUCGGGCCCGGCCCGGGGCCCGGAAAGUAUUAUGUUACGCCGUUCGGAUCUGCACUUC,-0.229
CUGUGCUACACAUCGUAUGUACCGAAUCGGGUUUUUUUGGGUUUUUUUGGGUUUUUUUGGGGAAAGUAUUAUGUUACGCCGUUCGGAUCU,1.49
UGGCCCUGGUGCCAUGCGGGGAGGAAGAGGUGGCCUCAUGGAUCGUGGUGGUCCCGGUGGAAUGUUCAGAGGUGGCCGUGGUGGAGACAG,0.149
CAAGUCCUGUGCUACACAUCGUAUGUACCGAAUCGGGGUUUGGGGUGGGGUGGGGAAAGUAUUAUGUUACGCCGUUCGGAUCUGCACUUC,-0.00553

# Block 6 — method: protein binding microarray; form: double-stranded DNA, one strand shown; matrix: in vitro; tested at: not given; relative to: not given; direction: higher = stronger binding
# Target: Histone acetyltransferase KAT6A, both winged helices, GST fusion (KAT6A, Homo sapiens, UniProt Q92794, residues 1-181)
# Setting: 8-mer, flanks averaged, mean of 2 arrays, mostly near background
# Residues (chain): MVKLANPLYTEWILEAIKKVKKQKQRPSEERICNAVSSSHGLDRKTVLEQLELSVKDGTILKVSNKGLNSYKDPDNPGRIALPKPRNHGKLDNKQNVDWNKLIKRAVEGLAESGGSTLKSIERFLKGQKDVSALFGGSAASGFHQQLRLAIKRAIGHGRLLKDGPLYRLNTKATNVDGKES
Sequence,E-score
CACATACC,0.0279
AGCCGAAG,-0.0909
CCTAACTC,-0.0463
CCAGGTTA,-0.0804
GAGGGAAC,-0.0492
CAATACCA,-0.0952
GTCGCTCA,0.0493
CTCGGCCC,0.148
AAGGTCGC,0.1
CTTATTGA,-0.2
TATGATCA,-0.073
AGAGCCCG,-0.0215
CAAGTAGA,-0.127
AAGGCACA,-0.216
ATATGGCC,0.0567
GGCGTAAA,0.217

# Some of these lines once more (block 6):
Sequence,E-score
CCAGGTTA,-0.0804
AAGGCACA,-0.216
CACATACC,0.0279
AAGGTCGC,0.1
CAATACCA,-0.0952
CAAGTAGA,-0.127
AGCCGAAG,-0.0909
